# Measurements gathered from unrelated publications.
# A part holds a random share of what one study measured.
# Sequence of UniProt O14936 (whole entry, looked up): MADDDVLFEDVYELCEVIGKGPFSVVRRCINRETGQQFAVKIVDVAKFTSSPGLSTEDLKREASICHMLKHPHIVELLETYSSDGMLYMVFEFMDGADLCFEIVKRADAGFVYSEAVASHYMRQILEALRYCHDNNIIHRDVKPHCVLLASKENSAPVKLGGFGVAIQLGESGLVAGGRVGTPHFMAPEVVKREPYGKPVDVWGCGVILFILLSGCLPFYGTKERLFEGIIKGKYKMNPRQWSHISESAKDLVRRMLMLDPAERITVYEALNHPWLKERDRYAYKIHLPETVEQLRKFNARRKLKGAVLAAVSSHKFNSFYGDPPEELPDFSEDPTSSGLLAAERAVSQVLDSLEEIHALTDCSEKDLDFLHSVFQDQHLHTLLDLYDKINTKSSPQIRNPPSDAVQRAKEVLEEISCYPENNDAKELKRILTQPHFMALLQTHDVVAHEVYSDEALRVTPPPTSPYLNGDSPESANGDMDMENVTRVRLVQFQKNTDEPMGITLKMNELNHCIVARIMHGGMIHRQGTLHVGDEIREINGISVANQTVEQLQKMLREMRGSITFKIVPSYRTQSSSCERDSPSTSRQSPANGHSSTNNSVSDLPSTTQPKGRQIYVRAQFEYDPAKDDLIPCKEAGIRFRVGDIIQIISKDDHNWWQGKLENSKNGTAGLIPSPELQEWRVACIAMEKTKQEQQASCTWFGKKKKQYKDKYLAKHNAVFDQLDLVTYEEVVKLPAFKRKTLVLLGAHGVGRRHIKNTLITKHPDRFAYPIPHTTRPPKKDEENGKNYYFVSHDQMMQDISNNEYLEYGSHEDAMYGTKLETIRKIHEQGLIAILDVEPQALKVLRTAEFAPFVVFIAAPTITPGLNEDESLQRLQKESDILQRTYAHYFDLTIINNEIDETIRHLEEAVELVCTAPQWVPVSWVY
# Sequence of UniProt Q9H093 (whole entry, looked up): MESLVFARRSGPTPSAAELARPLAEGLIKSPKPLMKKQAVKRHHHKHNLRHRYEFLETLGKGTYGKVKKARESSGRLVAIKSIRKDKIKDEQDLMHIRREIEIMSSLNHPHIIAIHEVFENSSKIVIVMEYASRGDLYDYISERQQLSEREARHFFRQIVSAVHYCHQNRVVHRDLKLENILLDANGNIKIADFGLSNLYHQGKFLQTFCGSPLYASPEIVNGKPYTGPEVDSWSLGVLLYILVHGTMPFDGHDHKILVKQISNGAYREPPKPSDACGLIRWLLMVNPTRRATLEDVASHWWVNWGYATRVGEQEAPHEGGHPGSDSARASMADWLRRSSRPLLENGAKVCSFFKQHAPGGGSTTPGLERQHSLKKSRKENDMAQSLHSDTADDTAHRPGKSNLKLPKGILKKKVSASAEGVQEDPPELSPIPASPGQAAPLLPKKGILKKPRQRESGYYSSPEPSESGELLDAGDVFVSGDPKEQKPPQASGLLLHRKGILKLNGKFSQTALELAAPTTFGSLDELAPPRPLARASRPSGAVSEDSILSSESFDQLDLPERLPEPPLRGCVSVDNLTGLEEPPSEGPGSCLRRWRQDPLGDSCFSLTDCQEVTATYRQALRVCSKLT
# Sequence of UniProt O95819 (whole entry, looked up): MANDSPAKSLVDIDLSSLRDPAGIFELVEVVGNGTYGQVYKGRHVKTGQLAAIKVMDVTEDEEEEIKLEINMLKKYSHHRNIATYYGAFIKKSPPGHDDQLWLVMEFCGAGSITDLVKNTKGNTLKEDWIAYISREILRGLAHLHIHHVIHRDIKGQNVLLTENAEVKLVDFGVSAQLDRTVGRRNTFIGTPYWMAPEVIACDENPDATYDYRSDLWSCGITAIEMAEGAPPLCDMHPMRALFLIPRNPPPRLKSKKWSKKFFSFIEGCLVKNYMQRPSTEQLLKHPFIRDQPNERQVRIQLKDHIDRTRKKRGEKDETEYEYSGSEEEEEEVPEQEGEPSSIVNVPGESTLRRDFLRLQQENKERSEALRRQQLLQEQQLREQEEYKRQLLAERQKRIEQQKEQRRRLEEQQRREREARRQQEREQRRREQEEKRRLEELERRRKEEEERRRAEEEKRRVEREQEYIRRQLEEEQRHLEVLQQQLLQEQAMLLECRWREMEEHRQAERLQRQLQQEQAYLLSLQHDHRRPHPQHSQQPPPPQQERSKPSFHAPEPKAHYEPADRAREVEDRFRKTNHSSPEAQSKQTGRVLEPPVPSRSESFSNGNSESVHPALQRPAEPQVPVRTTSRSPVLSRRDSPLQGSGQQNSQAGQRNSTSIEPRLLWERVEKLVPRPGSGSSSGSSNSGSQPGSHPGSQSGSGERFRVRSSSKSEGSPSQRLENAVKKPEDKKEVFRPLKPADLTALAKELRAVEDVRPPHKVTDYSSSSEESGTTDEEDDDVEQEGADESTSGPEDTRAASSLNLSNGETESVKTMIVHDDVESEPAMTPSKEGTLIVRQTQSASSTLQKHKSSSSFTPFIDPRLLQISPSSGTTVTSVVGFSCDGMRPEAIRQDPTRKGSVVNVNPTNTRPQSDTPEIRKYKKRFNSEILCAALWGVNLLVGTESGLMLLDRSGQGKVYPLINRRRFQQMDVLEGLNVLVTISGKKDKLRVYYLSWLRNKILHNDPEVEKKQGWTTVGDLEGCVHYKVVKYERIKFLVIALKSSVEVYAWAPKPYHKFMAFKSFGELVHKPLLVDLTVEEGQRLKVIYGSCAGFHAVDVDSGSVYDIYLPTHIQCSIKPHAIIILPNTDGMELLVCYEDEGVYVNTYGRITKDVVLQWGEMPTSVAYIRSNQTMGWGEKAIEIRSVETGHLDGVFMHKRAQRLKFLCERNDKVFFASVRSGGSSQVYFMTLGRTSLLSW
# Sequence of UniProt O96013 (whole entry, looked up): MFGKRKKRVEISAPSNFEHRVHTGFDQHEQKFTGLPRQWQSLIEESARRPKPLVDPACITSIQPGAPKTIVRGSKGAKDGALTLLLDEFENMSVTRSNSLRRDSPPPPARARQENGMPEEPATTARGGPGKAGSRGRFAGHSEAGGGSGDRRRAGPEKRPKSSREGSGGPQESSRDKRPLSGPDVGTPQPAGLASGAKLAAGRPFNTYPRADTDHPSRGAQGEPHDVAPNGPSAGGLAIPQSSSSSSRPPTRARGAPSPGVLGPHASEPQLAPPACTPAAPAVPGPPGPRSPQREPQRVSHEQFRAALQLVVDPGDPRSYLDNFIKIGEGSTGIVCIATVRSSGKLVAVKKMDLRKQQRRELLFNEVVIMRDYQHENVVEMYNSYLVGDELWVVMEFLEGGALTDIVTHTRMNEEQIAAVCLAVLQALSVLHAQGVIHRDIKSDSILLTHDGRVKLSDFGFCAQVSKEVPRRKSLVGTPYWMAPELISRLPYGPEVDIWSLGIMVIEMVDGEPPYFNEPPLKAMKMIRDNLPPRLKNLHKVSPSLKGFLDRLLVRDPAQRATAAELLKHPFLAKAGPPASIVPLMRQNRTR
# Sequence of UniProt Q15418 (whole entry, looked up): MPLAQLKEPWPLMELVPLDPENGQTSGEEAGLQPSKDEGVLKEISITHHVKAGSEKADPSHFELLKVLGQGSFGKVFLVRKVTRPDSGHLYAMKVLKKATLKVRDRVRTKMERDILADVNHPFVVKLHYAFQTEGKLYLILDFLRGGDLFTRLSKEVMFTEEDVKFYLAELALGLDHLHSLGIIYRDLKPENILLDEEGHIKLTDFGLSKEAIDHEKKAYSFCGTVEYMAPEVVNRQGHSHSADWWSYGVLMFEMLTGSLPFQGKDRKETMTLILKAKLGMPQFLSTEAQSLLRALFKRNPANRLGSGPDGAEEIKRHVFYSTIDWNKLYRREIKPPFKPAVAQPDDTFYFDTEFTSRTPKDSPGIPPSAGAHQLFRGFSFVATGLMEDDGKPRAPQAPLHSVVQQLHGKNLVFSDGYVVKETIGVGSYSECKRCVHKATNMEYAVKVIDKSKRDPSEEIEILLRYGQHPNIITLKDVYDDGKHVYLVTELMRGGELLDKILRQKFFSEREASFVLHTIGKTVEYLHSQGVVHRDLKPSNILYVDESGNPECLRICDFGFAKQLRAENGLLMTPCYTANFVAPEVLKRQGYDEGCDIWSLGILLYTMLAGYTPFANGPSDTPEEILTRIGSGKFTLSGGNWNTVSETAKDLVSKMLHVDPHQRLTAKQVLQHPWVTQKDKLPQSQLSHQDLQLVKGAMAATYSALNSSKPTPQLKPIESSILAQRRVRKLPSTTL

# Sample 1
# Structure (SMILES): CC(=O)Nc1c(C(C)=O)c(=O)n(C)c2nc(-c3ccc(Cl)cc3Cl)c(-c3ccc(Cl)cc3)cc12
# Observed: cell-free assay
# Technique: competition with immobilised ligand
# Tested at: 1 µM
target,remaining binding
"PAK4 (Homo sapiens, UniProt O96013)",100%
"Ribosomal protein S6 kinase alpha-1, N-terminal kinase domain (RPS6KA1, Homo sapiens, UniProt Q15418)",100%
"CASK (Homo sapiens, UniProt O14936)",83%
"MAP4K4 (Homo sapiens, UniProt O95819)",100%
"NUAK2 (Homo sapiens, UniProt Q9H093)",100%

# Sample 2
# SMILES: COc1ccc(-c2c(Nc3ccccn3)[nH]c3c(C4=CCCCC4)c(-c4ccccc4)nn3c2=O)cc1
# Matrix: plasma
# Route: oral
test,system,conditions,"plasma concentration, geometric mean [ng/mL]"
,cancer patients,"400 mg, 24 h post-dose, single dose",633
,human patients,"200 mg once daily, 2 h, cycle 1",5210
LC-MS/MS,human,"50 mg once daily, 24 h, cycle 1",1140
LC-MS/MS,human,"200 mg twice daily, 3 h",12300
,human patients,"150 mg once daily, 8 h, cycle 1",4190
,cancer patients,"200 mg, 48 h post-dose, single dose",457

# Sample 3
# Organism: Sarcocystis neurona
# Observed: parasite activity
# Tested at: 10 µM
# Time: 96 h
SMILES,activity class
O=C1CC[C@@H](C(=O)N2CSC[C@H]2C(=O)O)N1,inactive
N[C@@H](C(=O)N[C@@H]1C(=O)N2C(C(=O)O)=C(Cl)CS[C@H]12)c1ccccc1,inactive
NC(=O)N1c2ccccc2C=Cc2ccccc21,inactive
CC1=C(CC(=O)O)c2cc(F)ccc2/C1=C\c1ccc([S+](C)[O-])cc1 (stereo not drawn),inactive
COc1ccc(CC2c3cc(OC)c(OC)cc3CC[N+]2(C)CCC(=O)OCCCCCOC(=O)CC[N+]2(C)CCc3cc(OC)c(OC)cc3C2Cc2ccc(OC)c(OC)c2)cc1OC (stereo not drawn),inactive
CCC[C@@H]1C[C@@H](C(=O)N[C@@H]([C@H]2O[C@H](SC)[C@H](O)[C@@H](O)[C@H]2O)[C@@H](C)O)N(C)C1,inactive

# Sample 4
# Target: Ribosomal protein S6 kinase alpha-2 (RPS6KA2, Homo sapiens, UniProt Q15349)
# Sequence of UniProt Q15349 (whole entry, looked up): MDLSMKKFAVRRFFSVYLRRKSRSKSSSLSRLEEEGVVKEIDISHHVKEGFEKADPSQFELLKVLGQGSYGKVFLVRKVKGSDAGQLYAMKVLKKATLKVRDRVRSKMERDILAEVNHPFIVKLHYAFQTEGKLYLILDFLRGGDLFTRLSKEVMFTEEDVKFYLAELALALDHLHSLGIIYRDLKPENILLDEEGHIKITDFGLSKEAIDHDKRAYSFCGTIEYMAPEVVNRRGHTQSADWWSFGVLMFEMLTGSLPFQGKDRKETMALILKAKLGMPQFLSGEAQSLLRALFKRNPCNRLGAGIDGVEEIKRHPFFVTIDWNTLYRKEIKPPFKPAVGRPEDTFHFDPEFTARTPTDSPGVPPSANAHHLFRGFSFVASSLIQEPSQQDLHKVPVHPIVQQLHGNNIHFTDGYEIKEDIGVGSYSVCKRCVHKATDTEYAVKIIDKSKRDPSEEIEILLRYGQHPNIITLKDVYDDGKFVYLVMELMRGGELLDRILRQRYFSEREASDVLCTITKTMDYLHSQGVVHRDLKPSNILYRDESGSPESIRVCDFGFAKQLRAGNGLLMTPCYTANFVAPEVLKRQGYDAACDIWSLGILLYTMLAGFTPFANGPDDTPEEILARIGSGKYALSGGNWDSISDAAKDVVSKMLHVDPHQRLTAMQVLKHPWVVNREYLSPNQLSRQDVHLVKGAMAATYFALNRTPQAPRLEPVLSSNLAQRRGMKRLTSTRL
# Observed: enzyme activity
# Action: inhibitor
# Tested at: 0.5 µM
# Relative to: control
SMILES,remaining activity [%]
Cc1ccc(NC(=O)c2ccc(CN3CCN(C)CC3)cc2)cc1Nc1nc(-c2cccnc2)cs1,99.7
Cc1ccc(Nc2nccc(N(C)c3ccc4c(C)n(C)nc4c3)n2)cc1S(N)(=O)=O,93.2
CNC(=O)c1cc(Oc2ccc(NC(=O)Nc3ccc(Cl)c(C(F)(F)F)c3)cc2)ccn1,93.3
N#CC(C#N)=C(N)/C(C#N)=C/c1ccc(O)cc1,96.2
COc1ccc(C(=O)Nc2sc3c(c2C(N)=O)CCCC3)cc1OC,112
O=C(Nc1cccc(Nc2cc(Nc3cccc(C(F)(F)F)c3)ncn2)c1)C1CC1,102
Oc1ccc(-c2nc(-c3ccncc3)c(-c3ccc(F)cc3)[nH]2)cc1,101
O=c1c2ccccc2[nH]c(=S)n1CCN1CCC(=C(c2ccc(F)cc2)c2ccc(F)cc2)CC1,107
O=C(CCCc1ccc(-c2ccccc2F)cc1)Nc1ccc(O)cc1,101
COc1ccc(OC)c2c(=S)c3ccccc3[nH]c12,87.4
C#Cc1cccc(Nc2ncnc3cc(OCCOC)c(OCCOC)cc23)c1,101
N#CCCc1ccc2c(c1)-c1[nH]c3ccc([N+](=O)[O-])cc3c1CC(=O)N2,24.4
CCOC(=O)c1c(C)[nH]c(/C=C2\C(=O)Nc3ccccc32)c1C,71.4
COc1ccc(CNC(=O)Nc2ncc([N+](=O)[O-])s2)cc1,100
Cc1nc(-c2ccccc2)c(-c2ccncc2)o1,93
Cn1sc(=O)n(Cc2ccccc2)c1=O,104

# A few entries again (sample 4):
SMILES,remaining activity [%]
Cc1ccc(NC(=O)c2ccc(CN3CCN(C)CC3)cc2)cc1Nc1nc(-c2cccnc2)cs1,99.7
Cc1ccc(Nc2nccc(N(C)c3ccc4c(C)n(C)nc4c3)n2)cc1S(N)(=O)=O,93.2
CNC(=O)c1cc(Oc2ccc(NC(=O)Nc3ccc(Cl)c(C(F)(F)F)c3)cc2)ccn1,93.3
